Published values pooled from the literature.
Lines come from different studies, so protocols differ. Several values in a cell are separate wells, animals, samples, runs or records. ± gives the spread as reported.
Kir3.1/Kir3.2: Kir3.1/Kir3.2 (Homo sapiens, UniProt P48051+P48549)
UniProt P48549, sequence (whole entry, looked up): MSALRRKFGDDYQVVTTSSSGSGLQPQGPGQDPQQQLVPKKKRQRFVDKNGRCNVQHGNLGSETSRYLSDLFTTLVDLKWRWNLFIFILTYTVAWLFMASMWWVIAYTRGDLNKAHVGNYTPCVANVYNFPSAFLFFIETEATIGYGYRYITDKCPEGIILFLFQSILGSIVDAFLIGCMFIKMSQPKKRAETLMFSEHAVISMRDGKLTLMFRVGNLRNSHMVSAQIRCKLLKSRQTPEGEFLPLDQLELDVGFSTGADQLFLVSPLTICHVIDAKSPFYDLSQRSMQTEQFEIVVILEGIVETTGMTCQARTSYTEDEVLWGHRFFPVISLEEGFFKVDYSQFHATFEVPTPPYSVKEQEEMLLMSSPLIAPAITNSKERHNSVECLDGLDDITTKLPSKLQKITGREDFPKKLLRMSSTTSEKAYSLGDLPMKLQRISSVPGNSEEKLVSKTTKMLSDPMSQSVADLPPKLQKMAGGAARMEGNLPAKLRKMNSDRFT
UniProt P48051, sequence (whole entry, looked up): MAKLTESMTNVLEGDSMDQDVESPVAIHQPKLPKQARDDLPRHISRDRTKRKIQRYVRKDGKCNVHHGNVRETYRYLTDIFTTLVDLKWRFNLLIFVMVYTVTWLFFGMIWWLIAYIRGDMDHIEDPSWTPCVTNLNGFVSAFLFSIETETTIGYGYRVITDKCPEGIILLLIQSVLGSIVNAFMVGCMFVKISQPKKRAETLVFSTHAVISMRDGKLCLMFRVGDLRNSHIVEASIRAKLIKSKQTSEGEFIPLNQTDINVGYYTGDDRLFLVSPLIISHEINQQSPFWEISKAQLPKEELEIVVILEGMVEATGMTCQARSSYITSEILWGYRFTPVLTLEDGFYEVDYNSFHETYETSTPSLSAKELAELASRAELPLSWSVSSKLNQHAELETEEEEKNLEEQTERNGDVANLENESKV
CD209: CD209 antigen (CD209, Homo sapiens, UniProt Q9NNX6)
UniProt Q9NNX6, sequence (whole entry, looked up): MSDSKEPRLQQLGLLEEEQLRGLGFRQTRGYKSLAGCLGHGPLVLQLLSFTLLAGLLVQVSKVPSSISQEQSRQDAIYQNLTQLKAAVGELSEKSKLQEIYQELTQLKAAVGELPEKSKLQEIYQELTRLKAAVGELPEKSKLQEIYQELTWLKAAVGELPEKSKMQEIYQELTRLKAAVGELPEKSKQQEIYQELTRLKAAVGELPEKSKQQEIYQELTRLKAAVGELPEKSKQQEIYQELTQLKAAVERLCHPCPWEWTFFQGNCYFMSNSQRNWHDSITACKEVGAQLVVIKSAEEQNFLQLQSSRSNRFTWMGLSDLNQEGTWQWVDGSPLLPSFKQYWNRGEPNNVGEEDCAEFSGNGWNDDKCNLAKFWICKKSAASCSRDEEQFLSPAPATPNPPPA
UniProt P08235, sequence (whole entry, looked up): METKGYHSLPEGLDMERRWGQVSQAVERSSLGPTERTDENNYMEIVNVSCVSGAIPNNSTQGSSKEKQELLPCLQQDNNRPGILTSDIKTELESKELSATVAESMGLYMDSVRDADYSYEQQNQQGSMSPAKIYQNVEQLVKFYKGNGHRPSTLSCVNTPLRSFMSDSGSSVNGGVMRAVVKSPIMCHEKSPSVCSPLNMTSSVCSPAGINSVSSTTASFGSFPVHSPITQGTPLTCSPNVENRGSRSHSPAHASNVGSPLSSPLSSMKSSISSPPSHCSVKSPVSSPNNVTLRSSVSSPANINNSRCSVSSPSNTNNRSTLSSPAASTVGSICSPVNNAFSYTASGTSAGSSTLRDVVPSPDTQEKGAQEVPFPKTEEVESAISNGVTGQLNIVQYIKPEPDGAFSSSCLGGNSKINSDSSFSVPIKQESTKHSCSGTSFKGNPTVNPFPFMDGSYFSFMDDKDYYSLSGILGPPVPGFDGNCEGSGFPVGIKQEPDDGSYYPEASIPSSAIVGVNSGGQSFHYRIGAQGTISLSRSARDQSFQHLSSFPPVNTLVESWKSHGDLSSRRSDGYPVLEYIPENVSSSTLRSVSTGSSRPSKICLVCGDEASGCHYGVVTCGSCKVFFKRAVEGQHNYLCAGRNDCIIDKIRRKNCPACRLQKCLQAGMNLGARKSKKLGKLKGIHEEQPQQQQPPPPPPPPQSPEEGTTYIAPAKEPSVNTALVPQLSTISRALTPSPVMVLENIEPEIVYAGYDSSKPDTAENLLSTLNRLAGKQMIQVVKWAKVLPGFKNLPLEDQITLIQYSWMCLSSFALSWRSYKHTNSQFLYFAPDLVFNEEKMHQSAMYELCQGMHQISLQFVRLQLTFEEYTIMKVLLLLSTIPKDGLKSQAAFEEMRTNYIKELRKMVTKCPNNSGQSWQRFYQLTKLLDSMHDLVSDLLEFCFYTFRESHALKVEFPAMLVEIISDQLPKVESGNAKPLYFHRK
UniProt P63079, sequence (whole entry, looked up): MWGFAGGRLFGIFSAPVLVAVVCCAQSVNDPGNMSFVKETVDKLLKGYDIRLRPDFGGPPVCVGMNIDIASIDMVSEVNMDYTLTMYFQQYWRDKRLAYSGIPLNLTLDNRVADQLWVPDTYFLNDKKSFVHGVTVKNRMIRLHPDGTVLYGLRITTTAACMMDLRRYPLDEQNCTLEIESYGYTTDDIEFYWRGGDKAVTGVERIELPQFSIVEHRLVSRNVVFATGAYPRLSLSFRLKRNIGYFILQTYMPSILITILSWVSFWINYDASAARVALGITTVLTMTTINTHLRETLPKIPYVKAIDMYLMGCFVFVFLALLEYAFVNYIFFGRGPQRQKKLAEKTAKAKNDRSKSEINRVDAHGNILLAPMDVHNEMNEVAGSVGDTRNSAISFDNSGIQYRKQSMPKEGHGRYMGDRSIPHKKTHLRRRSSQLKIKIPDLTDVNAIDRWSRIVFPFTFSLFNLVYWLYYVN
UniProt Q920A1, sequence (whole entry, looked up): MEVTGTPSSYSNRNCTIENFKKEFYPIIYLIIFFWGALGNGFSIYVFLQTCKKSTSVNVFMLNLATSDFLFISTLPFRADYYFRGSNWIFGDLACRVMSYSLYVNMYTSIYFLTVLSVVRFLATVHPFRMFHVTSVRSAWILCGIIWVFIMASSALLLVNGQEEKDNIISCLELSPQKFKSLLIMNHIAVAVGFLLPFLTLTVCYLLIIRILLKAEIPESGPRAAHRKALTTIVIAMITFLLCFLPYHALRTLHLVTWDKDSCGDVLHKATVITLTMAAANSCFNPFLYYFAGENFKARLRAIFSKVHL
UniProt P35367, sequence (whole entry, looked up): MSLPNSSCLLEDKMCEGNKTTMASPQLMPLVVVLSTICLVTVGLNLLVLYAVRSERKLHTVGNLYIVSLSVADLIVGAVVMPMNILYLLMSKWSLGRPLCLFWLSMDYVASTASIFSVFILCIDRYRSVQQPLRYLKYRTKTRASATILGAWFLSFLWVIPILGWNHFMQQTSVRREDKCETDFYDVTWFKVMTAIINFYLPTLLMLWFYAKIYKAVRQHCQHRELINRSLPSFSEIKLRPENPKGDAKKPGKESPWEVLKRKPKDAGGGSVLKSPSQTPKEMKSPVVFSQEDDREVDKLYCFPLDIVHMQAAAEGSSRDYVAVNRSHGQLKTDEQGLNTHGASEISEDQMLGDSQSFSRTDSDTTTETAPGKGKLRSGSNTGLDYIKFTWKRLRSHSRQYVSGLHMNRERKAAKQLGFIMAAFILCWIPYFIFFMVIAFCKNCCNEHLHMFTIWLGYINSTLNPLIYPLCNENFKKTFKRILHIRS
UniProt P56373, sequence (whole entry, looked up): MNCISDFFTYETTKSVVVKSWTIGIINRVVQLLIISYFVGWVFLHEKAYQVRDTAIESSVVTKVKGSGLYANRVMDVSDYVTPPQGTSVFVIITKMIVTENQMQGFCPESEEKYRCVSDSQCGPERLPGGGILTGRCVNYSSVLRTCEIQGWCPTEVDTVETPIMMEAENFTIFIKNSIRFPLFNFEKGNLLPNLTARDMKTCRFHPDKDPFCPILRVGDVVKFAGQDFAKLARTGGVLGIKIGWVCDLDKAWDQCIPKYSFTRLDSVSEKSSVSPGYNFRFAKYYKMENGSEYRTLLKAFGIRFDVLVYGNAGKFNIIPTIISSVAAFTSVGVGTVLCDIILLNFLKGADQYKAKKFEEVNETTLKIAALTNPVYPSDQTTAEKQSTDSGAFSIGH
UniProt Q9JIP4, sequence (whole entry, looked up): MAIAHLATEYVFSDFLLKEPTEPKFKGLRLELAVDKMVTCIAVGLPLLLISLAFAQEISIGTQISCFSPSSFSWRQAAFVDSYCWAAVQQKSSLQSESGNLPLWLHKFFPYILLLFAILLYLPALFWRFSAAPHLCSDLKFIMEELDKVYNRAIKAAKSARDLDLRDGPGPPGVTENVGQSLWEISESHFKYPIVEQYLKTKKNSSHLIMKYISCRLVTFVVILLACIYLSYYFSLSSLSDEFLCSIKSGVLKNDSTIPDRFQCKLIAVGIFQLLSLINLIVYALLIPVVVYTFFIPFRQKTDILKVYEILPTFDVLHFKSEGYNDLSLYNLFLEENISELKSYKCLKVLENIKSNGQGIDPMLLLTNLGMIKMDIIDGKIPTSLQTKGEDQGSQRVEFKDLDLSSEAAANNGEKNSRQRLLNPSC
UniProt P35414, sequence (whole entry, looked up): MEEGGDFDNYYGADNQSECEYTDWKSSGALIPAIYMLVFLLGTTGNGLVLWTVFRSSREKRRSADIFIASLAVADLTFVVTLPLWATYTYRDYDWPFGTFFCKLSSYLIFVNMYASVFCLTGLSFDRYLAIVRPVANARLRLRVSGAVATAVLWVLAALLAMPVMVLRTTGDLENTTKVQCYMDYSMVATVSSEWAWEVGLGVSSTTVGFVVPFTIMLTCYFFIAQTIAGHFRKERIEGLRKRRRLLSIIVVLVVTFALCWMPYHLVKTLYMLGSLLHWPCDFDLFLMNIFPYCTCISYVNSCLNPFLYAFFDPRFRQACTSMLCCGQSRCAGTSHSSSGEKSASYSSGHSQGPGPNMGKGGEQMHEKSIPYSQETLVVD

O=C(COc1ccc(Cl)cc1Cl)Nc1nn(-c2ccccc2)c2ncccc12
EC50 (Kir3.1/Kir3.2; activator, thallium flux; HEK293): > 10 µM

CCCCC[C@H](O)/C=C/[C@H]1[C@H](O)CC(=O)[C@@H]1C/C=C\CCCC(=O)O
EC50 (PTGER1 (Homo sapiens, UniProt P34995, R338A); IP1 accumulation, agonist; AD293; EP1 R338A mutant): 0.191 µM

O=C(ON1C(=O)CCC1=O)c1cc(C(F)(F)F)cc(C(F)(F)F)c1
EC50 (CD209; binding, grating-coupled interferometry; Man(α1,2)Man-PEG3 chip; 2 h, no Tris): 125 µM

O=C(COc1ccc(C(F)(F)F)cc1C(F)(F)F)Nc1cc(C2CC2)nn1CC(F)(F)F
EC50 (Kir3.1/Kir3.2; activator, thallium flux; HEK293): 1.31 µM

Cn1cc2c(C(=O)O)ccc(NS(=O)(=O)c3ccc(OCC4CCC4)c(Cl)c3)c2n1
EC50 (HRH1 (Homo sapiens, UniProt P35367); agonist): > 10 µM

Nc1ncnc2c1ncn2[C@@H]1O[C@H](COP(=O)(O)OP(=O)(O)OP(=O)(O)O)[C@@H](O)[C@H]1O
EC50 (P2X purinoceptor 3 (P2RX3, Homo sapiens, UniProt P56373); ion current, agonist, patch clamp; HEK293 expressing wild-type): 0.286 ± 0.011 µM

Cc1cc(NC(=O)C2CCc3cc(F)ccc3O2)n(C2CCS(=O)(=O)C2)n1 (stereo not shown)
EC50 (Kir3.1/Kir3.2; activator, thallium flux; HEK293): > 10 µM

COc1ccc(Cl)cc1C(=O)NCCc1ccc(S(=O)(=O)NC(=O)NC2CCCCC2)cc1
EC50 (Pannexin-1 (Panx1, Mus musculus, UniProt Q9JIP4); ion current, inhibitor, two-electrode voltage clamp; Xenopus oocytes; +50 mV pulses): 45 µM

O=C(COc1ccc(Cl)cc1Cl)Nc1cc(C2CC2)nn1CC(F)(F)F
EC50 (Kir3.1/Kir3.2; activator, thallium flux; HEK293): 0.526 µM

FC(F)(F)c1cc(Nc2nc(Cl)nc(Cl)n2)cc(C(F)(F)F)c1
EC50 (CD209; binding, plate-based HRP; overnight, room temperature): 2.8 µM

O=C(COc1ccc(Cl)cc1Cl)Nc1cc(C2CC2)nn1C1CCC(F)(F)CC1
EC50 (Kir3.1/Kir3.2; activator, thallium flux; HEK293): 0.209 µM

CCCCCCCC/C=C\CCCCCCCC(=O)NCCc1ccc(O)c(O)c1
EC50 (Trpv1 (Mus musculus, UniProt Q704Y3, S513A); ion current, agonist, whole-cell patch clamp; 24 °C, +80 mV): 0.38 ± 0.11 µM

COc1c(Nc2cc(C(F)(F)F)cc(C(F)(F)F)c2)c(=O)c1=O
EC50 (CD209; binding, plate-based HRP; overnight, room temperature): 15 µM

CCOc1ccc(N(C)S(=O)(=O)c2cc(Cl)sc2C(=O)Nc2ccc3c(c2)C(=O)NC3=O)cc1OC
EC50 (NR1H2 (Homo sapiens, UniProt P55055)): > 25 µM

CC(=O)c1cc([N+](=O)[O-])c(Sc2cccc(Cl)c2Cl)s1
EC50 (USP28 (Homo sapiens, UniProt Q96RU2); enzyme activity, inhibitor): > 50 µM

CCOCc1nc(O)c(-c2nnc(Cc3ccc(Cl)cn3)o2)c(O)c1-c1c(OC)cccc1OC
EC50 (Apelin receptor (APLNR, Homo sapiens, UniProt P35414); Gαi2 activation, agonist, BRET biosensor; HEK293): 0.00015 ± 4e-05 µM

O=Cc1c(O)cc(C(F)(F)F)cc1C(F)(F)F
EC50 (CD209; binding, plate-based HRP; overnight, room temperature): 23 µM

CCc1cc(NC(=O)COc2ccc(Cl)cc2Cl)n(CC(F)(F)F)n1
EC50 (Kir3.1/Kir3.2; activator, thallium flux; HEK293): 0.527 µM

COc1cccc(-n2nc3c4cc(Cl)ccc4[nH]cc-3c2=O)c1
EC50 (Gamma-aminobutyric acid receptor subunit alpha-4/beta-3, with delta subunit (Rattus norvegicus, UniProt P28471+P63079); GABA-evoked current, two-electrode voltage clamp; α4β3δ receptor, with: GABA EC3-10): 15.7 µM

CCCCC/C=C\C\C=C/C=C/C=C/[C@@H](SC[C@H](NC(=O)CC[C@H](N)C(=O)O)C(=O)NCC(=O)O)[C@@H](O)CCCC(=O)O
EC50 (Cysteinyl leukotriene receptor 2 (Cysltr2, Mus musculus, UniProt Q920A1); potentiation of cAMP; HEK293T transfected with Cysltr2; with: forskolin 1 µM): 0.0007 µM

O=C(COc1cccc(Cl)c1Cl)Nc1cc(C2CCC2)nn1CC(F)(F)F
EC50 (Kir3.1/Kir3.2; activator, thallium flux; HEK293): 2.98 µM

Nc1nc2c(ncn2[C@@H]2O[C@@H]3COP(=O)(O)O[C@H]3[C@H]2O)c(=O)[nH]1
EC50 (Cone cGMP-gated channel (Morone saxatilis, UniProt Q3I0N1+Q3I0N2); channel current, agonist, suction electrode; Morone saxatilis, cone outer segments; with: 20 µM Ca2+): 316 ± 43.9 µM

COc1cc(Nc2ncc3c(n2)-c2ccc(Cl)cc2C(c2c(F)cccc2OC)=NC3)ccc1C(=O)NCCOCCOCCNC(=O)COc1cccc2c1C(=O)N(C1CCC(=O)NC1=O)C2=O (stereo not shown)
EC50 (ABL2 (Homo sapiens, UniProt P42684); binding, kinobead competition; MV4-11 cell lysate): > 30 µM

O=C(COc1cc(Cl)ccc1Cl)Nc1cc(C2CCC2)nn1C1CCC(F)(F)CC1
EC50 (Kir3.1/Kir3.2; activator, thallium flux; HEK293): 0.48 µM

C[C@]12CCC(=O)C=C1CC[C@@H]1[C@@H]2[C@@H](O)C[C@@]2(C)[C@H]1CC[C@]2(O)C(=O)CO
EC50 (NR3C2 (Homo sapiens, UniProt P08235); reporter gene, agonist, Gaussia luciferase reporter; without 18β-glycyrrhetinic acid): > 2 µM and ~2 µM

For quick reference, copied from above:
Cn1cc2c(C(=O)O)ccc(NS(=O)(=O)c3ccc(OCC4CCC4)c(Cl)c3)c2n1
EC50 (HRH1 (Homo sapiens, UniProt P35367); agonist): > 10 µM

Nc1nc2c(ncn2[C@@H]2O[C@@H]3COP(=O)(O)O[C@H]3[C@H]2O)c(=O)[nH]1
EC50 (Cone cGMP-gated channel (Morone saxatilis, UniProt Q3I0N1+Q3I0N2); channel current, agonist, suction electrode; Morone saxatilis, cone outer segments; with: 20 µM Ca2+): 316 ± 43.9 µM

CCOCc1nc(O)c(-c2nnc(Cc3ccc(Cl)cn3)o2)c(O)c1-c1c(OC)cccc1OC
EC50 (Apelin receptor (APLNR, Homo sapiens, UniProt P35414); Gαi2 activation, agonist, BRET biosensor; HEK293): 0.00015 ± 4e-05 µM

CCc1cc(NC(=O)COc2ccc(Cl)cc2Cl)n(CC(F)(F)F)n1
EC50 (Kir3.1/Kir3.2; activator, thallium flux; HEK293): 0.527 µM
